Published values pooled from the literature.
Every numbered part comes from another study and shows a few of its results, in no order.
UniProt Q99759, sequence (whole entry, looked up): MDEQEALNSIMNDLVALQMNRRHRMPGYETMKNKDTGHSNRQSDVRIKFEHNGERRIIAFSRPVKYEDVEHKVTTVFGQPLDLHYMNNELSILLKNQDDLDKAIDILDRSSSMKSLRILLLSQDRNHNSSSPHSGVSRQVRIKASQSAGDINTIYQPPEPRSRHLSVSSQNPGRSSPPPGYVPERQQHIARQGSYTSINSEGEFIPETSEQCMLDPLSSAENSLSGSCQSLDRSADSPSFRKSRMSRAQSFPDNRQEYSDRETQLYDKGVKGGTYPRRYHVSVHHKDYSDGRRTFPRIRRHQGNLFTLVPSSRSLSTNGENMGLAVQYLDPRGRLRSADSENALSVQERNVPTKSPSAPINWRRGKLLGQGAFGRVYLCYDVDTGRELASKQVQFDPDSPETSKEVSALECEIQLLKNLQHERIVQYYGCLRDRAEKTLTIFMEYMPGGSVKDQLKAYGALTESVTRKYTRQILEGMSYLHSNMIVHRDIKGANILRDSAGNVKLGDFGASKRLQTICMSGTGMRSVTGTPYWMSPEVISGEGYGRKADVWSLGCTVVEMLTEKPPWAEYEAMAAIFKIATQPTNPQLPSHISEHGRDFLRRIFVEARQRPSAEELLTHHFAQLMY
UniProt Q96RR4, sequence (whole entry, looked up): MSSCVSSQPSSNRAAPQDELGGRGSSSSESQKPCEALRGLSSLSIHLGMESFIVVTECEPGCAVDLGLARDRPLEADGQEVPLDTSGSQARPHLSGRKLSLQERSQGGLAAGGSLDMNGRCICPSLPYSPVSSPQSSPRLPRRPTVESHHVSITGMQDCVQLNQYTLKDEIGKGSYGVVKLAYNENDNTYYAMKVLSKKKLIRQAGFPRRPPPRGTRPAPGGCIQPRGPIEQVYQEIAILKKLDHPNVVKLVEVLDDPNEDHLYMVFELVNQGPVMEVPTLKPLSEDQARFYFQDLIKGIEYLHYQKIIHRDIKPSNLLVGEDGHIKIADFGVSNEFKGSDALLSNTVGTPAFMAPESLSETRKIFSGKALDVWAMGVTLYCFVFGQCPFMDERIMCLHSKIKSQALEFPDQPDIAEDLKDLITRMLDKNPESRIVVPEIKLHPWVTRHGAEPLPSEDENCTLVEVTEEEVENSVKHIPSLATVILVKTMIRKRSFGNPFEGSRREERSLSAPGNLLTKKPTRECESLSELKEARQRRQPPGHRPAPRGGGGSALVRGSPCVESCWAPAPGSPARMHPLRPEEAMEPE
UniProt P51955, sequence (whole entry, looked up): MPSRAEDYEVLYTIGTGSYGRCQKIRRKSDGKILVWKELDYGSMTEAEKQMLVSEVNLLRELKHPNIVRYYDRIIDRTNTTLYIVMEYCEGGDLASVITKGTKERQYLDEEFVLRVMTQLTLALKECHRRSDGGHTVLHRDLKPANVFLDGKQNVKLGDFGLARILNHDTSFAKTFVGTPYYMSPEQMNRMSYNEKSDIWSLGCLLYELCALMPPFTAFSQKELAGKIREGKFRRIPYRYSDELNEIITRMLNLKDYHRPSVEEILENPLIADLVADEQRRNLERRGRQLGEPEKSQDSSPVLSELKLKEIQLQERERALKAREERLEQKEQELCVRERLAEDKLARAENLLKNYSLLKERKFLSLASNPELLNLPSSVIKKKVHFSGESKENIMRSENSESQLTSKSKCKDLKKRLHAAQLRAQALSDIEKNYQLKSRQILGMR
UniProt Q14164, sequence (whole entry, looked up): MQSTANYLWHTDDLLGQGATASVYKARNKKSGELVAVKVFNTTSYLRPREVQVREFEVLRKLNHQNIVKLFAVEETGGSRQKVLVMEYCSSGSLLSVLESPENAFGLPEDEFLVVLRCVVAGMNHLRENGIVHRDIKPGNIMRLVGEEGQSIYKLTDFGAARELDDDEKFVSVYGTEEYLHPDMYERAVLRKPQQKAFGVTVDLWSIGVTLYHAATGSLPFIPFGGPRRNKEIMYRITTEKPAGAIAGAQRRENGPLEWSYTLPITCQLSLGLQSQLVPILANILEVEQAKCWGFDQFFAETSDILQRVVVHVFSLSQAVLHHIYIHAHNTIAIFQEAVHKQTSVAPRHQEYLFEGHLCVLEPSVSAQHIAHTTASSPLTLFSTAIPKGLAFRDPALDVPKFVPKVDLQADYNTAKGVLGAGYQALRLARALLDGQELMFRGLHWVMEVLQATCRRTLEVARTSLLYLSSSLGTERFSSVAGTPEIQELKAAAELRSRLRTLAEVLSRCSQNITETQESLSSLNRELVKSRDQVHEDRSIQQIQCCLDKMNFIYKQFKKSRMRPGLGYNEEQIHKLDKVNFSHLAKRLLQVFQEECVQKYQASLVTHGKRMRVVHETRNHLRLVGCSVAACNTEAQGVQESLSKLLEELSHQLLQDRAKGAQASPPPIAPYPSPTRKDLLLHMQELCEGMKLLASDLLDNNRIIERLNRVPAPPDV
UniProt P35626, sequence (whole entry, looked up): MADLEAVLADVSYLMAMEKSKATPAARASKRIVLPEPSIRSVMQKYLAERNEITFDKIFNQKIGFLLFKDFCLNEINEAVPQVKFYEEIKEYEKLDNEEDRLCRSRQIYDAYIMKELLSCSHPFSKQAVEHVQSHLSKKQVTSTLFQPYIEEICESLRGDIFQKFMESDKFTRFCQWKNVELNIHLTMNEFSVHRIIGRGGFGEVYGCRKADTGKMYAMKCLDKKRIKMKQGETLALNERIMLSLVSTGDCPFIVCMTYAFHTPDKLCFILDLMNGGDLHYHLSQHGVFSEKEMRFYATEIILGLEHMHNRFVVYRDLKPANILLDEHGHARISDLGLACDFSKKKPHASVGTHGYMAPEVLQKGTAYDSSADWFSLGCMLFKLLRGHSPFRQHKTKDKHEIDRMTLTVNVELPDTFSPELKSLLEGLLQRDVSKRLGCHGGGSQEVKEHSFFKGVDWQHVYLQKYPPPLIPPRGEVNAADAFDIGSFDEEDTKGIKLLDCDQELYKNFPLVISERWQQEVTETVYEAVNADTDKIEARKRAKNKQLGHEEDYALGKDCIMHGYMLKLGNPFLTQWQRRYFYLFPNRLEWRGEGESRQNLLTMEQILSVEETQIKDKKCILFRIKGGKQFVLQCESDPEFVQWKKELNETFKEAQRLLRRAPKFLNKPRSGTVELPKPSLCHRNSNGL
UniProt Q12851, sequence (whole entry, looked up): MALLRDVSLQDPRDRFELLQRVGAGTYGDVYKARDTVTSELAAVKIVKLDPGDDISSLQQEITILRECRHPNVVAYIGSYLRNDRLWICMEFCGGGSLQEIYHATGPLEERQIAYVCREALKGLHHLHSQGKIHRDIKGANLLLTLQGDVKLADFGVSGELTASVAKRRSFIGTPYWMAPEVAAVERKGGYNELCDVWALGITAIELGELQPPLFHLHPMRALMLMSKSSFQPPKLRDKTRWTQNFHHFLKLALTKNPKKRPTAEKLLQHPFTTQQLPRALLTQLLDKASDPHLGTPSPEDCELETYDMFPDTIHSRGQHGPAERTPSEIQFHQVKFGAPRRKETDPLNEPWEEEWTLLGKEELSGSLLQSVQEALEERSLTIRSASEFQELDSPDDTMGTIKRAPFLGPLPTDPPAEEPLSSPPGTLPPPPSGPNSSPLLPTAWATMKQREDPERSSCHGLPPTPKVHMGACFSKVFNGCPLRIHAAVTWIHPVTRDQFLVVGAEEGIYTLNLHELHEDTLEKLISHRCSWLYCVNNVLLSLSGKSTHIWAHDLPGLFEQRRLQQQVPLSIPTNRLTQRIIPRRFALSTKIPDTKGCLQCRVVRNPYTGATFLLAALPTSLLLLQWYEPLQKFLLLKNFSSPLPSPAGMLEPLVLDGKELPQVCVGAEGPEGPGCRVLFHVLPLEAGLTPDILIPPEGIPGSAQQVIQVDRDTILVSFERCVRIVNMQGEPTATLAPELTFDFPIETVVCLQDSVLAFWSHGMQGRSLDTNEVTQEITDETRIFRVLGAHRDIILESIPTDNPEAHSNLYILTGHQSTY

Sample 1 — observed: cell-free assay; technique: competition with immobilised ligand; tested at: 1 µM
SMILES: CC(=O)N1CCC(c2ccc(C(=O)NC3=NCCN3)cc2C(F)(F)F)CC1
The remaining binding was 100% (Mitogen-activated protein kinase kinase kinase kinase 2 (MAP4K2, Homo sapiens, UniProt Q12851)).
It gave 100% for remaining binding (Epidermal growth factor receptor (EGFR, Homo sapiens, UniProt P00533, del746-750)).
The remaining binding was 100% (Mitogen-activated protein kinase kinase kinase 3 (MAP3K3, Homo sapiens, UniProt Q99759)).
The remaining binding was 93% (Mitogen-activated protein kinase kinase kinase 6 (MAP3K6, Homo sapiens, UniProt O95382)).

Sample 2 — observed: enzyme activity; action: inhibitor; tested at: 0.5 µM; reference: control
Structure (SMILES): C[S+]([O-])c1ccc(-c2nc(-c3ccncc3)c(-c3ccc(F)cc3)[nH]2)cc1 (stereo not drawn)
The remaining activity was 98% (Inhibitor of nuclear factor kappa-B kinase subunit epsilon (IKBKE, Homo sapiens, UniProt Q14164)).
It gave 98.2% for remaining activity (G protein-coupled receptor kinase 3 (GRK3, Homo sapiens, UniProt P35626)).
It gave 102% for remaining activity (Mitogen-activated protein kinase kinase kinase 3 (MAP3K3, Homo sapiens, UniProt Q99759)).
The remaining activity was 93.9% (STE20/SPS1-related proline-alanine-rich protein kinase (STK39, Homo sapiens, UniProt Q9UEW8)).
For Protein kinase C alpha type (PRKCA, Homo sapiens, UniProt P17252): remaining activity read 92.3%.
The remaining activity was 110% (Calcium/calmodulin-dependent protein kinase kinase 2 (CAMKK2, Homo sapiens, UniProt Q96RR4)).
It gave 105% for remaining activity (Serine/threonine-protein kinase Nek2 (NEK2, Homo sapiens, UniProt P51955)).

Sample 3 — technique: competition protein-binding microarray; form: double-stranded DNA, one strand shown; medium: in vitro; tested at: 2 µM; with: Pho4 competitor, 0.05 µM; reading: higher = stronger binding
Target: Centromere-binding protein 1, full length, His-tagged (CBF1, Saccharomyces cerevisiae, UniProt P17106, residues 1-351)
UniProt P17106, sequence (whole entry, looked up): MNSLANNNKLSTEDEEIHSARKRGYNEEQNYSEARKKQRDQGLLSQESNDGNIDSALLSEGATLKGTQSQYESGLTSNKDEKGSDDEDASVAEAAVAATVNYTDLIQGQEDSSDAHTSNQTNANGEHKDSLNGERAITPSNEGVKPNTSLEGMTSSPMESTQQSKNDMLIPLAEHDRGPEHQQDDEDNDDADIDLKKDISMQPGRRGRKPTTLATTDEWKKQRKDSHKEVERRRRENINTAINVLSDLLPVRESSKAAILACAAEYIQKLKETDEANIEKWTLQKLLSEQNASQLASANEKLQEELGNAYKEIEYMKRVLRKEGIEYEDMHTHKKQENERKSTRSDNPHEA
Setting: whole 60-bp probe, lowest competitor level
For `TTTAAAAGGAGCCATCACGTTCTGCAGCACTTGAATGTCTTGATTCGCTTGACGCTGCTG`, the fluorescence intensity was 185 a.u.
With `ATCTTATTAATTCATGGAAGGCATTGAACTCAACAGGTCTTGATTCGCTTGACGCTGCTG` the fluorescence intensity was 74 a.u.
`CTTCTGTAAATTTGTACAGTGGGTGGACGCGCCCCGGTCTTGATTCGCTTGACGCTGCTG` has a fluorescence intensity of 98.8 a.u.
With `CTTCTGTAAATTTGGGTAGTGGGTGGACGCGCCCCGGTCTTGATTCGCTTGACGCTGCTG` the fluorescence intensity was 85.8 a.u.
`TCAAGAAGCAGTTTTATCGTGATGGGTTTCAAATCGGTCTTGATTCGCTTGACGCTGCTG` gave a fluorescence intensity of 67.3 a.u.
For `CGTCCTAGTGATTGCAGAGTGGGTGCCATGAGGAAGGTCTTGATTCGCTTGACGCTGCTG`, the fluorescence intensity was 88.8 a.u.
`GAAAGCGTTCAGTCCCACGTTGAAAAAAATATATAAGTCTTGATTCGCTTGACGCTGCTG` has a fluorescence intensity of 87.2 a.u.
`CGGGGTTAAGTTTGCTGGGTGGGTGGCTTGCAGCAGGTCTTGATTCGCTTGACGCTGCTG` has a fluorescence intensity of 68.4 a.u.

Sample 4 — technique: protein-binding microarray; form: double-stranded DNA, one strand shown; medium: in vitro; tested at: not given; reading: higher = stronger binding
Target: Transcriptional repressor CTCF (CTCF, Homo sapiens, UniProt P49711, residues 1-727, full length assumed)
Setting: k-mer, scored over probes, only values ≥0.25
Target sequence (chain): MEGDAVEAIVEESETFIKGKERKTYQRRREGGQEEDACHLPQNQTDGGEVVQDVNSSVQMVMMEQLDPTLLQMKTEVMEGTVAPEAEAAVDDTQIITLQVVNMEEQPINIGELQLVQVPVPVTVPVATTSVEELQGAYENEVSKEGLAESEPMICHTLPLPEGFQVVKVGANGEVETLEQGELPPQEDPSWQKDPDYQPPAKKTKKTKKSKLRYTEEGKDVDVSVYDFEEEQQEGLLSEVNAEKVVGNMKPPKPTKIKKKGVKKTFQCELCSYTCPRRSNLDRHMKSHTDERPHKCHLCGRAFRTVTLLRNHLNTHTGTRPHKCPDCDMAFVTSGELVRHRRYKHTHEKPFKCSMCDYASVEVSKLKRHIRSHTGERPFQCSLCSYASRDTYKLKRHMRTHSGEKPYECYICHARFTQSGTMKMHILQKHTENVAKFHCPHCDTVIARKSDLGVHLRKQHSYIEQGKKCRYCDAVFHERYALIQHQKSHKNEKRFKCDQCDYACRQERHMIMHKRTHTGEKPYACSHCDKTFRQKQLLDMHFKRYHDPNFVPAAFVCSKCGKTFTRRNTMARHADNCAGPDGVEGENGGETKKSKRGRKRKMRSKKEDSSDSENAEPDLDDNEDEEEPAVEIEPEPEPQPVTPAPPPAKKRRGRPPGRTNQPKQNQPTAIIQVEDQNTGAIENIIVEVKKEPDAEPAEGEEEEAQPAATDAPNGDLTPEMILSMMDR
For `AGCGCCAC`, the E-score was 0.449.
The E-score of `CATTATTA` is reported as 0.353.
The E-score of `CCTTTTCA` is reported as 0.321.
With `CGTGTATA` the E-score was 0.295.
With `TGCACTAA` the E-score was 0.284.
With `ATATGATA` the E-score was 0.335.
For `ATAATTCA`, the E-score was 0.342.
With `ATACGTAT` the E-score was 0.405.

For quick reference, copied from above (sample 2):
The remaining activity was 93.9% (STE20/SPS1-related proline-alanine-rich protein kinase (STK39, Homo sapiens, UniProt Q9UEW8)).
For Protein kinase C alpha type (PRKCA, Homo sapiens, UniProt P17252): remaining activity read 92.3%.
The remaining activity was 110% (Calcium/calmodulin-dependent protein kinase kinase 2 (CAMKK2, Homo sapiens, UniProt Q96RR4)).
It gave 105% for remaining activity (Serine/threonine-protein kinase Nek2 (NEK2, Homo sapiens, UniProt P51955)).
